Measurements collected from several papers.
Numbers after ± are the reported error.

SMILES	system	setting	Cmax
CC(C)NC[C@@H](C(=O)N1CCN(c2ncnc3c2[C@H](C)C[C@H]3O)CC1)c1ccc(Cl)cc1	human, moderate hepatic impairment (Child-Pugh), plasma	oral, 100 mg single dose, geometric mean	89.1 ng/mL
CCCC[C@H](NC(C)=O)C(=O)N[C@H]1CCC(=O)NC[C@@H](C(=O)N[C@@H](Cc2c[nH]c3ccccc23)C(N)=O)NC(=O)[C@H](CCCNC(=N)N)NC(=O)[C@@H](Cc2ccccc2)NC(=O)[C@H](Cc2c[nH]cn2)NC1=O	beagle dog, male, plasma	subcutaneous, 1.5 mg/kg daily, day 28	98 ng/mL
Cc1cc(Nc2cc3ncccc3c(N[C@@H]3C[C@H]4CC[C@@H](C3)N4CCC#N)n2)n[nH]1	Sprague-Dawley rat, female, plasma	oral, 30 mg/kg/day, last day of 13 weeks	3.54 ng/mL
Cc1nc2cccc(OCC(C)(C)C(=O)NC(C)C)c2c(N)c1C(=O)O	male Sprague-Dawley rat, plasma	oral gavage, 100 mg/kg, day 7	118 ± 15.3 ng/mL
CC1=C2C[C@H]3[C@@H](CC[C@@H]4C[C@H](NS(C)(=O)=O)CC[C@@]43C)[C@@H]2CC[C@@]2(C1)O[C@@H]1C[C@H](C)CN[C@H]1[C@H]2C	patients, plasma	oral, 210 mg single, day -7, cycle 1	117 ng/mL
CS(=O)(=O)Nc1ccc(C(=O)O[C@@H](Cc2c(Cl)c[n+]([O-])cc2Cl)c2ccc(OC(F)F)c(OCC3CC3)c2)cc1OCC1CC1	human, plasma	inhaled, 2000 µg twice daily, day 14, multi-dose dry powder inhaler	5.45 ng/mL
O=c1[nH]c(=O)c(Cc2cccc(C(F)(F)F)c2)c([C@H]2CC[C@H](c3ccccc3)CC2)[nH]1	human, fasted, plasma	oral, 100 mg single dose, geometric mean	69.3 ng/mL
O=C(CCCCCCC(=O)Nc1ccccc1)NO	patients, serum	oral, 600 mg, cycle 1, with: flavopiridol	3.1 µM
CO[C@H]1C[C@@H]2CC[C@@H](C)[C@@](O)(O2)C(=O)C(=O)N2CCCC[C@H]2C(=O)O[C@H]([C@H](C)C[C@@H]2CC[C@@H](O)[C@H](OC)C2)CC(=O)[C@H](C)/C=C(\C)[C@@H](O)[C@@H](OC)C(=O)[C@H](C)C[C@H](C)/C=C/C=C/C=C/1C	human, whole blood	oral, 35 mg, with: grapefruit juice	130 ng/mL

For quick reference, copied from above:
SMILES	system	setting	Cmax
CC1=C2C[C@H]3[C@@H](CC[C@@H]4C[C@H](NS(C)(=O)=O)CC[C@@]43C)[C@@H]2CC[C@@]2(C1)O[C@@H]1C[C@H](C)CN[C@H]1[C@H]2C	patients, plasma	oral, 210 mg single, day -7, cycle 1	117 ng/mL
CS(=O)(=O)Nc1ccc(C(=O)O[C@@H](Cc2c(Cl)c[n+]([O-])cc2Cl)c2ccc(OC(F)F)c(OCC3CC3)c2)cc1OCC1CC1	human, plasma	inhaled, 2000 µg twice daily, day 14, multi-dose dry powder inhaler	5.45 ng/mL
